Experimental data collected from several papers.
Compare with care: the assays were run in different laboratories. Several values in a cell are separate wells, animals, samples, runs or records. ± marks the error that the study gave.

Under “change in Meaning score”, `O=C(Nc1ccccc1)C1CCN(C(=O)Oc2cccnc2)CC1` is recorded as 0.1 (psychotropic effects VAS; healthy women; 100 mg; reference: pre-dose baseline, direction not given).
Under “respiratory failure adverse events”, `Nc1nc2cc(-c3ccc4ncc(C(=O)N5CCOCC5)n4c3)ccc2o1` is recorded as 4% (human, advanced solid tumours; 100–300 mg once daily, any cause, grade ≥3).
For `Oc1ccc(Cl)c(-c2ccc(Cl)cc2Cl)c1Cl`, the enantiomeric fraction was 0.5 (enantioselective gas chromatography; racemized sample; column temperature 170 °C).
For `COc1cc2c(cc1OC)CN(CCc1ccc(NC(=O)c3cccc4c(=O)c5cccc(OC)c5[nH]c34)cc1)CC2`, the AUC(0-inf) was 2580 ng·h/mL (CD-1 mouse, male, plasma; intraperitoneal, 3 mg/kg).
`C[C@@H](NC(=O)N1C(=O)[C@H](Cc2ccnc(N)c2)[C@H]1C(=O)O)C1CCCCC1`: “incidence of elevated neutrophil” 0% (healthy adult Chinese volunteers; continuous intravenous infusion, 0.6 mg/kg/h, 5-day infusion, CTCAE 5.0 grading).
The hypomagnesaemia incidence of `COc1ccc([C@@H](O)c2cc(-c3ncnc4cc(N5CCOCC5)ccc34)c(F)cc2Cl)nn1` is reported as 4% (patients, advanced solid tumours; oral, 300 mg twice daily, treatment-emergent, with: avelumab).
For `O=C1Nc2cc3[nH]nc(-c4ccncc4)c3cc2CN1Cc1ccccc1`, “patients with subretinal fluid” read 0% (CTCAE v4.03; human, relapsed or refractory advanced solid tumours; intravenous, 3.6 mg/kg, pooled schedules).
`COc1ccc(C(C)(C)c2cnc(SCCOc3ccc(-n4ccnc4)cc3)n2-c2ccc(F)cc2)cc1OC`: “CYP1A2 induction Emax” 5.01 fold (refers to: CYP1A2 mRNA; sandwich-cultured human hepatocytes; 48 h; reference: vehicle).
For `O=C(O)CCCOc1ccc(F)cc1-c1cc(-c2ccccc2C(F)(F)F)n(-c2ccccc2)n1`, the blood chemistry was 53.5 ± 6.4 mg/dL (refers to: T-Cho; Crl:CD(SD) rats, male, blood; iv, 25 µg/kg, 14 days).
`C=CCNc1c(O)cc2c(O)c1C[C@@H](C)C[C@H](OC)[C@H](O)[C@@H](C)/C=C(\C)[C@H](OC(N)=O)[C@@H](OC)/C=C\C=C(/C)C(=O)N2`: “patients with infusion site pain” 33% (unresectable or metastatic STS, GIST, other; intravenous, 300 mg/m^2).
`CO[C@H]1C[C@@H]2CC[C@@H](C)[C@@](O)(O2)C(=O)C(=O)N2CCCC[C@H]2C(=O)O[C@H]([C@H](C)C[C@@H]2CC[C@@H](OC(=O)NCCOCCOCCOCCOCCOCCOCCOCCOCCC(=O)N3CCc4cc(Cn5nc(-c6ccc7oc(N)nc7c6)c6c(N)ncnc65)ccc4C3)[C@H](OC)C2)C[C@@H](O)[C@H](C)/C=C(\C)[C@@H](O)[C@@H](OC)C(=O)[C@H](C)C[C@H](C)/C=C/C=C/C=C/1C`: “incidence of mucositis TRAE” 49% (patients with advanced solid tumours; intravenous, dose not given, any grade).
`CC(C)C[C@H](NC(=O)[C@H](CCCCN)NC(=O)OCC1c2ccccc2-c2ccccc21)C(=O)N[C@H](C(=O)N[C@@H](Cc1ccccc1)C(=O)N[C@@H](Cc1ccccc1)C(=O)N[C@@H](CCCCN)C(=O)NCC(=O)N[C@@H](Cc1ccccc1)C(=O)N[C@@H](C)C(=O)N[C@@H](Cc1c[nH]c2ccccc12)C(=O)N[C@@H](CC(N)=O)C(=O)N[C@H](C(=O)N[C@H]1CSSC[C@@H](C(=O)N[C@@H](Cc2c[nH]cn2)C(=O)N[C@@H](CCCNC(=N)N)C(=O)N[C@@H](CCCNC(=N)N)C(=O)N[C@@H](C)C(=O)N[C@@H](CC(N)=O)C(N)=O)NC(=O)[C@H](C(C)C)NC(=O)[C@H](CCCNC(=N)N)NC(=O)[C@H](C(C)C)NC(=O)CNC(=O)[C@H](CC(N)=O)NC(=O)[C@H](CCCNC(=N)N)NC(=O)[C@H](Cc2ccc(O)cc2)NC(=O)[C@H](C(C)C)NC1=O)C(C)C)C(C)C` gave a plateletcrit of 0.03 ± 0.01% (ICR mice, blood; intraperitoneal, 10 mg/kg, day 5).
Under “dose-limiting toxicity anaemia”, `Cn1cncc1-c1c(F)cncc1NC(=O)c1c(N)nn2cc(F)cnc12` is recorded as 30% (human patients; oral, 180 mg once daily, 21 days).
The concentration of `CN(C(=O)n1cnc(-c2ccc[n+]([O-])c2)c1)C1CCCCC1` is reported as 17.5 ± 0.7 ng/g (Wistar rat, cerebellum; oral, 10 mg/kg/day, 24 h, repeated 5 days).
`CCc1ccc(CC/C=C/c2ccc3c(c2)C(=O)CC3)cc1`: “ALP serum activity” 136 U/L (Sprague-Dawley rat, female; oral, 450 mg/kg/day, 14 days).
Under “incidence of Arthralgia”, `CC(C)c1nc(N(C)S(C)(=O)=O)nc(-c2ccc(F)cc2)c1/C=C/[C@@H](O)C[C@@H](O)CC(=O)O` is recorded as 0% (healthy human subjects; oral, dose not given, study CL-0537 safety set).
For `CN[C@H](CC(C)C)C(=O)N[C@H]1C(=O)N[C@@H](CC(N)=O)C(=O)N[C@H]2C(=O)N[C@H]3C(=O)N[C@H](C(=O)N[C@H](C(=O)O)c4cc(O)cc(O)c4-c4cc3ccc4O)[C@H](O)c3ccc(c(Cl)c3)Oc3cc2cc(c3O[C@@H]2O[C@H](CO)[C@@H](O)[C@H](O)[C@H]2O[C@H]2C[C@](C)(N)[C@H](O)[C@H](C)O2)Oc2ccc(cc2Cl)[C@H]1O`, the AUC was 703 mg·h/L (female rat, serum; intraperitoneal, 200 mg/kg, 7 h).
The drug concentration of `COc1ncccc1-c1cnn2ccc(N3CCN(C(=O)OC(C)C)CC3)nc12` is reported as 4.2 µM (mouse nerve ligation model, plasma; oral, 30 mg/kg, 180 min after last dose, repeat dosing day 1).
`Cn1cc(-c2nc(N[C@@H]3CCCC[C@@H]3N)c(F)c3c2C(=O)NC3)cn1` gave an adverse events of 71% (any bleeding; patients with relapsed or refractory AML; oral, 100 mg once daily).
`CC(=O)c1c(C)c2cnc(Nc3ccc(C4CCN(CCS(C)(=O)=O)CC4)cn3)nc2n(C2CCCC2)c1=O` gave an AUC(0-t) of 6050 ng·h/mL (human, dose-escalation trial, plasma; oral, 150 mg twice daily, day 21, multiple doses).
For `NCCCC[C@@H]1NC(=O)[C@@H](Cc2c[nH]c3ccccc23)NC(=O)[C@H](c2ccccc2)NC(=O)[C@@H]2C[C@@H](OC(=O)NCCN)CN2C(=O)[C@H](Cc2ccccc2)NC(=O)[C@H](Cc2ccc(OCc3ccccc3)cc2)NC1=O`, “subjects with adverse event Nasopharyngitis” read 5% (healthy human volunteers; 1950 µg twice daily).
For `[2H]C([2H])([18F])[C@]([2H])(N)C(=O)O`, the tissue uptake was 1.36 ± 0.25 %ID/cc (PET; athymic nude mice, U-87 MG, muscle; dose not given, 60 min post-injection).
`COc1cc2c(Oc3ccc4[nH]c(C)cc4c3F)ccnc2cc1OCC1(N)CC1` — result for “grade 3 Vomiting”: 0% (paediatric recurrent refractory sarcoma; 10 mg).
With `O=C1N=C(N2CCCCN2)S/C1=C\c1ccc(F)cc1OC(=O)N1CCCC1` the NOEL was 200 mg/kg/day (rat Sprague-Dawley both sexes; oral, dose not given, 7 days repeat dose, twice daily).
For `CCCCCCCCCCCCCCCC(=O)N[C@@H](CCC(=O)NCCCC[C@H](NC(=O)[C@H](CC(=O)O)NC(=O)[C@H](CO)NC(=O)[C@@H](NC(=O)[C@H](Cc1ccccc1)NC(=O)[C@@H](NC(=O)CNC(=O)[C@H](CCC(N)=O)NC(=O)[C@H](CO)NC(=O)[C@@H](N)Cc1c[nH]cn1)[C@@H](C)O)[C@@H](C)O)C(=O)N[C@@H](CO)C(=O)N[C@@H](CCC(=O)O)C(=O)N[C@@H](Cc1ccc(O)cc1)C(=O)N[C@@H](CC(C)C)C(=O)N[C@@H](CC(=O)O)C(=O)N[C@@H](CO)C(=O)N[C@@H](CCC(=O)O)C(=O)N[C@@H](CCCNC(=N)N)C(=O)N[C@@H](C)C(=O)N[C@@H](CCCNC(=N)N)C(=O)N[C@@H](CC(=O)O)C(=O)N[C@@H](Cc1ccccc1)C(=O)N[C@H](C(=O)N[C@@H](C)C(=O)N[C@@H](Cc1c[nH]c2ccccc12)C(=O)N[C@@H](CC(C)C)C(=O)N[C@@H](CCC(=O)O)C(=O)N[C@@H](C)C(=O)NCC(=O)NCC(=O)O)C(C)C)C(=O)O`, “treatment-related adverse events” read 37.5% (refers to: Nausea; humans CrCl at least 90 mL/min; subcutaneous, 100 µg single dose).
With `CNC(=O)c1cc(Oc2ccc(NC(=O)Nc3cc(C(C)(C)C)nn3-c3ccc4ncccc4c3)c(F)c2)ccn1` the related SAE was 2% (vision blurred, NCI CTC v3.0; human patients; oral, all dose levels).
Under “acute respiratory failure incidence”, `Cn1ncc(-c2nc(N[C@H]3CC[C@H](N)CC3)ncc2Cl)c1CC1CC1` is recorded as 3% (phase I dose escalation; human patients; dose not given, grade 3-4 TEAE; reference: patients).
Under “relative organ weight”, `O=S(=O)(Nc1ccccc1)c1ccc(NC(=S)Nc2ccccc2)cc1` is recorded as 0.51% (male mice, heart; oral, 80 mg/kg daily 14 days; reference: body weight).
Under “enzyme contribution to clearance”, `CC(C)[C@H](C(=O)O[C@H](C#N)c1cccc(Oc2ccccc2)c1)c1ccc(Cl)cc1` is recorded as 1.63% (refers to: CYP3A4; human, age 6 months).
`COc1cccc(Oc2ccccc2NC(=O)CNC(=O)c2cccc3ccccc23)c1` has a serum creatinine of 0.1 mg/dL and 0.2 mg/dL (esterase-deficient SCID mice, male; oral, 15 mg/kg/day, 14 days, toxicity study).
`C=CC(=O)Nc1cc(Nc2nccc(Nc3cc(Cl)c(F)cc3C(C)(C)O)n2)c(OC)cc1N1CC[C@@H](N(C)C)C1` — result for “incidence of blood creatine phosphokinase increased”: 18.8% (treatment-emergent adverse events; human; oral, 200 mg, phase I clinical trial).
For `C[C@]1(CO)Cc2ncn(-c3ccc(C#N)c(Cl)c3)c2C(=O)O1`, “half-life at steady state” read 5.2 h (human, plasma; 20 mg once daily, fasted).
For `CCCCCOc1ccc(-c2ccc(-c3ccc(C(=O)N[C@H]4C[C@@H](O)[C@@H](OCC[N+](C)(C)C)NC(=O)[C@@H]5[C@@H](O)[C@@H](C)CN5C(=O)[C@H]([C@@H](C)O)NC(=O)[C@H]([C@H](O)[C@@H](O)c5ccc(O)cc5)NC(=O)[C@@H]5C[C@@H](O)CN5C(=O)[C@H]([C@@H](C)O)NC4=O)cc3)cc2)cc1`, the bilirubin was 13.3 µmol/L (adult ICU patients, mITT, serum; dose not given, EOT).
